Measured values collected from several papers.
Parts stem from different laboratories: compare values within a part only.

Series 1
Target: Sal-like protein 4, full length isoform A (SALL4, Homo sapiens, UniProt Q9UJQ4, residues 1-1053)
UniProt Q9UJQ4, sequence (whole entry, looked up): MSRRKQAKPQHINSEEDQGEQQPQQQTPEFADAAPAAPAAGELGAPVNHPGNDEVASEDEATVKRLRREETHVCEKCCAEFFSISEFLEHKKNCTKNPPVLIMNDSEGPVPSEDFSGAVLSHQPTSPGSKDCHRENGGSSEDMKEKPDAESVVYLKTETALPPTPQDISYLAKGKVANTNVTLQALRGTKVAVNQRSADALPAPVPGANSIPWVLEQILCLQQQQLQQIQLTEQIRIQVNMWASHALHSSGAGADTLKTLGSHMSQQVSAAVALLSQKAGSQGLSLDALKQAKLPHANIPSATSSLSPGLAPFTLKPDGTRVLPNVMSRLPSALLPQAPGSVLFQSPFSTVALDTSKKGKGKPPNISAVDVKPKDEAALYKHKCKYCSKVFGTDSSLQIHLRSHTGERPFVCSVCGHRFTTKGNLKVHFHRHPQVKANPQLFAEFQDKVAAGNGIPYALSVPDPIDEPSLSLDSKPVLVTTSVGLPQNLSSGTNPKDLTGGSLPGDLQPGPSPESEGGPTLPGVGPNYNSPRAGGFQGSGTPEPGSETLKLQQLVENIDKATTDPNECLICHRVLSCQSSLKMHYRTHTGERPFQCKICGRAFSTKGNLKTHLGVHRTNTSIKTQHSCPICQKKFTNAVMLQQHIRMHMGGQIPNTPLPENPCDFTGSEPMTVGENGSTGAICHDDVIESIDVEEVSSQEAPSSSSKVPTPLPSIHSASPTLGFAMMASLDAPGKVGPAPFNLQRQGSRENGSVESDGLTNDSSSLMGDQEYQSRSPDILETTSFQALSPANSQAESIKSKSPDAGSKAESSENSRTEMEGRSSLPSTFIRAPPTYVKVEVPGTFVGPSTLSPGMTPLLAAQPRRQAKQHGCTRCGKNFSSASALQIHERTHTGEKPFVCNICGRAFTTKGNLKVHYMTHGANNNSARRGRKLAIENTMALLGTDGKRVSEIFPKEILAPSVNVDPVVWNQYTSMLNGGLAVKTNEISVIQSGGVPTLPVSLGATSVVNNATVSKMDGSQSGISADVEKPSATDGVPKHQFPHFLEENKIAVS
Technique: universal PBM
Form: double-stranded DNA, one strand shown
Medium: in vitro
Concentration: 600 nM
Notes: 8-mer, flanks averaged, mean of replicates
Reading: higher = stronger binding
Quantity: E-score
Oligonucleotide = CCACAGAA; result = 0.0928
Oligonucleotide = AAAAGTGG; result = 0.124
Oligonucleotide = AAACGTTA; result = 0.185
Oligonucleotide = ACTAGCGA; result = -0.0124
Oligonucleotide = ATCGCCGG; result = -0.355
Oligonucleotide = AACAAGCG; result = 0.0805
Oligonucleotide = CTACTTAC; result = 0.174
Oligonucleotide = GGAGTGAA; result = 0.0613
Oligonucleotide = AGGAAAGG; result = -0.0469
Oligonucleotide = AAGACAAC; result = 0.124
Oligonucleotide = CCCGGAAC; result = -0.274
Oligonucleotide = AGATATGC; result = 0.175
Oligonucleotide = CGCTATAC; result = 0.0334
Oligonucleotide = ATGCAGAG; result = -0.0604
Oligonucleotide = GGAGTCTA; result = -0.0961
Oligonucleotide = ATTCCGAC; result = -0.051
Oligonucleotide = CAAAGGCG; result = -0.135
Oligonucleotide = CATAGATC; result = 0.0413
Oligonucleotide = CGCCACGC; result = -0.335
Oligonucleotide = CCGTGACG; result = -0.172
Oligonucleotide = ACAGTTGC; result = 0.0104
Oligonucleotide = GCGGTGGA; result = -0.279
Oligonucleotide = AGAGGACT; result = -0.0229
Oligonucleotide = CGTTGCAG; result = -0.146
Oligonucleotide = ACCACCTC; result = -0.0531

Series 2
Target: RNA binding protein fox-1 homolog 2, RRM domain, GST-SBP tag (RBFOX2, Homo sapiens, UniProt O43251-10, residues 100-194)
Technique: RNA Bind-n-Seq
Form: RNA
Medium: in vitro
Concentration: 365 nM
Notes: natural RNA segment, single round, ends assumed
Relative to: no-protein control
Reading: higher = stronger binding
Quantity: RBNS enrichment (R)
All sequences stand within: GGGAGUUCUACAGUCCGACGAUC … UGGAAUUCUCGGGUGCCAA
Residues (chain): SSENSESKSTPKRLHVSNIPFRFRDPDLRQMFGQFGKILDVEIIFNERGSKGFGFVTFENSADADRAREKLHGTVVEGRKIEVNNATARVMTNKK
Oligonucleotide = ACUUCAGACAUGCAUCAGUAGGAAAUAACUUGAGAAAUUCAUAUGGUUAUGUUACAAAUUCAUAUUCUGUUACUACAGUAAACGUUAAGAGUUUUAAACAGUUAAGAUUG; result = 0.581
Oligonucleotide = GUCCUUUUGGAUCUGGUCCUGCUCCUACCUGCUCCUUCUCUGCAGAUUGUUAGAAAGUGAACUUUGCUCAACCCAGACCCCGGCAGCCCAGGCUGGACCAAGGGUGGGCC; result = 0.739
Oligonucleotide = GCCUCACAUUUGCAGGUAAUAUCAAGCAGCAAACUAAAUUCUGAGAAAUAAACGAGUCUAUUACUGUUUGGUCUCAGCUGAUUUGCCCUUUGAUGGCCCAGUGAAGAGAG; result = 0.356
Oligonucleotide = CCCACAAAAGACUCAACAAAAUUAGACCACAAAAUUUGCAUUGUUCAUUGUAGCACUAUUGGUAAUAAAAGAACAGAUGUUUGUGCAUUUUUAUGUGAAGAUCCUUCUCG; result = 0.795
Oligonucleotide = AUUUUUGUAGUGACCUGUUUAUGAGAUGCUGGUUUUCUACCCAACGGCCCUGCAGCCAGCUCACGUCCAGGUUCAACCCACAGCUACUUGGUUUGUGUUCUUCUUCAUAU; result = 0.214
Oligonucleotide = AAAAGGCUCAGACCGACCGAUGGCAAGAUCUGCAAGCGUCUCAAAGCCCAGGCAGAAAAGGACUUUUCUUUUAUUGGAAGAAGUAAACAUGGCUAGAAAGAACCACGUUC; result = 0.425
Oligonucleotide = CCAUGAUUUAUGUUUUCAGGGGAUGCCCAUUUGUCCCAAGCUUAUCCUGUAAUUCUAGAAUUACCUGGUGUCCUGAUGCAUUUUCCACUAGAGGUUGCUAAUCAGCAUGU; result = 1.73
Oligonucleotide = UAAAUGCUAUAUCUGGUAUCCAGAGGCUGGCUGUAAAAAGUUCCUUGGGGUCACUCUAUCUCACAUUUUUUUUGGUUAGCAUUUUAAAAAUGCAAAGCCACAUACUUUGA; result = 0.253

Series 3
Target: Histone acetyltransferase KAT6A, winged helix 2, GST fusion (KAT6A, Homo sapiens, UniProt Q92794, residues 85-181)
Technique: protein binding microarray
Form: double-stranded DNA, one strand shown
Medium: in vitro
Concentration: not given
Notes: 8-mer, flanks averaged, mean of 2 arrays, mostly near background
Relative to: not given
Reading: higher = stronger binding
Quantity: E-score
Target sequence (chain): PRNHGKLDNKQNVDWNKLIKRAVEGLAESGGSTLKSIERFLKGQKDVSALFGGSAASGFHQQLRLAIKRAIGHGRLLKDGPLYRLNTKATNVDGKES
Oligonucleotide = AGAACAAG; result = 0.0458
Oligonucleotide = AAATTGTG; result = -0.172
Oligonucleotide = AGATTTAT; result = 0.0667
Oligonucleotide = ACTCATGG; result = -0.12
Oligonucleotide = AGTTCGCA; result = 0.0679
Oligonucleotide = CAATTTCC; result = -0.0372
Oligonucleotide = GCGGGACC; result = 0.121
Oligonucleotide = CACTAGCC; result = 0.103
Oligonucleotide = AACTCCGA; result = 0.123
Oligonucleotide = TAATCATA; result = 0.037
Oligonucleotide = GCATAAAC; result = 0.0599
Oligonucleotide = CATTGAGC; result = 0.0124
Oligonucleotide = GGCACATA; result = 0.103
Oligonucleotide = AGTGATAA; result = -0.204
Oligonucleotide = CATAAGGA; result = -0.257
Oligonucleotide = CATATACA; result = 0.121

Series 4
Target: Prothrombin, mature alpha-thrombin (F2, Homo sapiens, UniProt P00734)
Technique: aptamer microarray, sandwich
Form: DNA with 2'F-ANA
Medium: in vitro
Concentration: 200 nM
Notes: whole 15-mer aptamer, many near background
Added: Cy3 exosite-II aptamer, 400 nM
Reading: higher = stronger binding
Quantity: mean fluorescence intensity
Oligonucleotide: GGTTGGTGTGGTTGG
Modification = 2'F-ANA at 2 5 6 7 11 12 15; result = 134 a.u.
Modification = 2'F-ANA at 3 7 9 11 15; result = 992 a.u.
Modification = 2'F-ANA at 4 8 10 12 14 15; result = 56.9 a.u.
Modification = 2'F-ANA at 2 3 4 6 7 9 13 15; result = 270 a.u.
Modification = 2'F-ANA at 1 2 4 6 7 11 13 15; result = 72 a.u.
Modification = 2'F-ANA at 1 2 3 11 13 14 15; result = 65 a.u.
Modification = 2'F-ANA at 2 4 5 6 7 12 13 14; result = 48.7 a.u.
Modification = 2'F-ANA at 1 7 9 10 11 13 14 15; result = 50 a.u.
Modification = 2'F-ANA at 1 2 3 4 5 6 7 8 11 12 15; result = 91.1 a.u.
Modification = 2'F-ANA at 1 2 6 8 11 12 13; result = 235 a.u.
Modification = 2'F-ANA at 2 3 5 6 13 15; result = 65.5 a.u.
Modification = 2'F-ANA at 5 8 11 14 15; result = 49.8 a.u.
Modification = 2'F-ANA at 1 4 7 8 9 10; result = 52.2 a.u.
Modification = 2'F-ANA at 1 4 5 6 9 10 11 13 15; result = 48.9 a.u.
Modification = 2'F-ANA at 2 3 5 7 9 10 11 12 14; result = 48.4 a.u.
Modification = 2'F-ANA at 4 5 6 8 9 11 12 13 15; result = 72.9 a.u.
Modification = 2'F-ANA at 1 2 3 4 6 7 14 15; result = 63.4 a.u.
Modification = 2'F-ANA at 2 3 8 10 12; result = 523 a.u.
Modification = 2'F-ANA at 1 2 3 5 9 11; result = 69.7 a.u.
Modification = 2'F-ANA at 2 4 6 7 9 10 13 15; result = 70.3 a.u.
Modification = 2'F-ANA at 3 7 8 10 11 13 14 15; result = 554 a.u.
Modification = 2'F-ANA at 2 3 4 7 10 11 13 14 15; result = 161 a.u.
Modification = 2'F-ANA at 2 4 6 7 13 15; result = 186 a.u.
Modification = 2'F-ANA at 2 3 5 6 8 9 11 12 13 14; result = 76.1 a.u.
Modification = 2'F-ANA at 2 3 5 6 7 8 9 10 11 12 13; result = 56.6 a.u.

Excerpt of the above (series 1):
Oligonucleotide = ACAGTTGC; result = 0.0104
Oligonucleotide = GCGGTGGA; result = -0.279
Oligonucleotide = AGAGGACT; result = -0.0229
Oligonucleotide = CGTTGCAG; result = -0.146
Oligonucleotide = ACCACCTC; result = -0.0531
